{"data": "Assay results gathered from unrelated publications", "target": "Tyrosine-protein kinase HCK (HCK, Homo sapiens, UniProt P08631)", "note": "Compare with care: the assays were run in different laboratories. ± gives the spread as reported.", "sequence of UniProt P08631 (whole entry, looked up)": "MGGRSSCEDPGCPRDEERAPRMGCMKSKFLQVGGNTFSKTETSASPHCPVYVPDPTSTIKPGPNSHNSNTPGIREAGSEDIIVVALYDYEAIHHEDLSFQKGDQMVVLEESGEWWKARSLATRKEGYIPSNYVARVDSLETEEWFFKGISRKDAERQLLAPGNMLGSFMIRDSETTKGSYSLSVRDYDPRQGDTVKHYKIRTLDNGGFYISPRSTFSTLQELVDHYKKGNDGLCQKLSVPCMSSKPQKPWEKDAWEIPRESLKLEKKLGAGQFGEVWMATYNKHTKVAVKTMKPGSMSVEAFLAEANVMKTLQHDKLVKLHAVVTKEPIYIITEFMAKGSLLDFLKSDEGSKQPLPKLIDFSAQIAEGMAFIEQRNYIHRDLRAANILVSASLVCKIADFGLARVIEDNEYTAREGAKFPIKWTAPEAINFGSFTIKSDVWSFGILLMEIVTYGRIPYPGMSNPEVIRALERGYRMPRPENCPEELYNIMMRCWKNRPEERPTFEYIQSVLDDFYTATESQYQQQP"}
{"SMILES": "Cc1ccc(C(=O)NCc2ccsc2)cc1C#Cc1cn(C(C)C)c2ncnc(N)c12", "test": "kinase activity", "conditions": "1 µM, with: ATP at Km", "measurement": "remaining activity", "result": "4%"}
{"SMILES": "CC#CC(=O)N1CCC[C@H]1c1nc(-c2ccc(C(=O)Nc3ccccn3)cc2)c2c(N)nccn12", "test": "kinase activity, inhibitor, HotSpot radiometric", "conditions": "100 nM, with: ATP 10 µM", "measurement": "remaining activity", "result": "102 ± 1.5%"}
{"SMILES": "Cc1cc(Nc2cc(N3CCN(C)CC3)nc(Sc3ccc(NC(=O)C4CC4)cc3)n2)[nH]n1", "test": "kinase activity, KinaseProfiler", "conditions": "0.03 µM, species human", "scale": "relative to: control", "measurement": "remaining activity", "result": "105%"}
{"SMILES": "CCN(CC)c1ccc(C2=NNC(=O)CC2C)cc1[N+](=O)[O-] (centres unmarked)", "test": "kinase activity", "conditions": "10 µM, activated enzyme", "measurement": "remaining activity", "result": "105%"}
{"SMILES": "Cc1nc(Nc2ncc(C(=O)Nc3c(C)cccc3Cl)s2)cc(N2CC[C@H](O)C2)n1", "conditions": "0.001 µM", "measurement": "inhibition", "result": "89%"}
{"SMILES": "Cc1cnc(NC2CCOCC2)nc1-n1cnc(C(=O)NC(CN)c2cc(F)cc(Cl)c2)c1 (centres unmarked)", "test": "enzyme activity, radiometric", "conditions": "1 µM", "measurement": "remaining activity", "result": "103%"}
{"SMILES": "C=CC(=O)N1CCC[C@@H](n2nc(-c3ccc(Oc4ccccc4)cc3)c3c(N)ncnc32)C1", "conditions": "1 µM", "measurement": "remaining activity", "result": "105%"}
{"SMILES": "C=CC(=O)N1CCC(COCC(=O)N2CCN(c3nc(-c4cnc(N)nc4C(F)F)nc(N4CCOC[C@@H]4C)n3)CC2)CC1", "test": "KINOMEscan", "conditions": "1 µM", "measurement": "remaining binding", "result": "100%"}
{"SMILES": "[2H]c1cc(C)c(NC(=O)c2cnc(Nc3cc(N4CCCCC4)nc(C)n3)s2)c(Cl)c1", "conditions": "0.01 µM", "measurement": "inhibition", "result": "> 90%"}
{"SMILES": "COc1cc(F)ccc1-c1ncnc(Nc2cccc(C[S@](C)(=N)=O)c2)n1", "test": "kinase activity", "conditions": "10 µM, with: 10 µM ATP", "measurement": "remaining activity", "result": "79%"}
{"SMILES": "COc1ccc(F)cc1C(=O)NCc1ccc(-c2nn([C@@H](C)C(F)(F)F)c(N)c2C(N)=O)cc1", "test": "target engagement, competitive chemoproteomics", "system": "human PBMCs", "conditions": "0.01 µM", "measurement": "inhibition", "result": "-10.9%"}
{"note": "Excerpt of the above:"}
{"SMILES": "CCN(CC)c1ccc(C2=NNC(=O)CC2C)cc1[N+](=O)[O-] (centres unmarked)", "test": "kinase activity", "conditions": "10 µM, activated enzyme", "measurement": "remaining activity", "result": "105%"}
